Measured values from different studies.
Compare with care: the assays were run in different laboratories. ± marks the error that the study gave.
STK25: Serine/threonine-protein kinase 25 (STK25, Homo sapiens, UniProt O00506)
Chain of UniProt O00506 (whole entry, looked up): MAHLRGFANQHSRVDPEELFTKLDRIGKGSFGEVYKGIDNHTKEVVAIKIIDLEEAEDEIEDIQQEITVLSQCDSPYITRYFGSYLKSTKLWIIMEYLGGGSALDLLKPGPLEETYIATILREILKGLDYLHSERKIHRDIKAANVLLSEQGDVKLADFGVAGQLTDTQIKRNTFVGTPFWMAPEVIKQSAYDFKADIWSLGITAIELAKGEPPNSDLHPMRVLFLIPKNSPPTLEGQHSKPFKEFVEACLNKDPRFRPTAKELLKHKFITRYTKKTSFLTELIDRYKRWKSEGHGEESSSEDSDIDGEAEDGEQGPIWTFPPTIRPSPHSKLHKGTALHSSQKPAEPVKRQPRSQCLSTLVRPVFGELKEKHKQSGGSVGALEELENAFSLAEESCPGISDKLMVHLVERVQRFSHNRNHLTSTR
TLK2: Serine/threonine-protein kinase tousled-like 2 (TLK2, Homo sapiens, UniProt Q86UE8)
Chain of UniProt Q86UE8 (whole entry, looked up): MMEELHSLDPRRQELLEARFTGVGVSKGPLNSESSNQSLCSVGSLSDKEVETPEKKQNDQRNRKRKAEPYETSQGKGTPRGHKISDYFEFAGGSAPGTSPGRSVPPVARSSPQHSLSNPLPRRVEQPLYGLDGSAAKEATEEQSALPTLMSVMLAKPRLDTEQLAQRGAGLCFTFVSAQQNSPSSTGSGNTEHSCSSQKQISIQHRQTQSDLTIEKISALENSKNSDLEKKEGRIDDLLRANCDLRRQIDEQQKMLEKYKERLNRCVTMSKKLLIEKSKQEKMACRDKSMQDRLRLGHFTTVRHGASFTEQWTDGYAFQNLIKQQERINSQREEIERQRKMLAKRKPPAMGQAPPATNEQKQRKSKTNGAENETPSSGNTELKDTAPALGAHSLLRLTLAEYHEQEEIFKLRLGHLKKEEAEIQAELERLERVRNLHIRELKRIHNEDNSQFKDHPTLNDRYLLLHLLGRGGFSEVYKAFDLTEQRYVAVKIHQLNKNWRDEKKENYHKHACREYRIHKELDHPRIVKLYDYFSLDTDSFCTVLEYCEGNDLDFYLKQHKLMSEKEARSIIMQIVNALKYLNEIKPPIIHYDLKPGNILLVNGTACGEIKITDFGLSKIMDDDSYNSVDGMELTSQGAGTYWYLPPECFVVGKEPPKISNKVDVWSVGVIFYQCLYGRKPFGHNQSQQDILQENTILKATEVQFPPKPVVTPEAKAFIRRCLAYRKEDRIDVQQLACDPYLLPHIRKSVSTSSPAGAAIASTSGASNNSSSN
UCHL1: Ubiquitin carboxyl-terminal hydrolase isozyme L1 (UCHL1, Homo sapiens, UniProt P09936)
Chain of UniProt P09936 (whole entry, looked up): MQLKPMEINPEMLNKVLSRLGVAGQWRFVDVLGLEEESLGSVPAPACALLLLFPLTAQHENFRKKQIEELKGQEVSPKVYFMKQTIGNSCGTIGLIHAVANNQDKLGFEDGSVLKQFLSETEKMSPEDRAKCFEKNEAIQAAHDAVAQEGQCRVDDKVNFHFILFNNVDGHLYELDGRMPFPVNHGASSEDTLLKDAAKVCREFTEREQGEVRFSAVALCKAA
KDM4A: Lysine-specific demethylase 4A (KDM4A, Homo sapiens, UniProt O75164)
Chain of UniProt O75164 (whole entry, looked up): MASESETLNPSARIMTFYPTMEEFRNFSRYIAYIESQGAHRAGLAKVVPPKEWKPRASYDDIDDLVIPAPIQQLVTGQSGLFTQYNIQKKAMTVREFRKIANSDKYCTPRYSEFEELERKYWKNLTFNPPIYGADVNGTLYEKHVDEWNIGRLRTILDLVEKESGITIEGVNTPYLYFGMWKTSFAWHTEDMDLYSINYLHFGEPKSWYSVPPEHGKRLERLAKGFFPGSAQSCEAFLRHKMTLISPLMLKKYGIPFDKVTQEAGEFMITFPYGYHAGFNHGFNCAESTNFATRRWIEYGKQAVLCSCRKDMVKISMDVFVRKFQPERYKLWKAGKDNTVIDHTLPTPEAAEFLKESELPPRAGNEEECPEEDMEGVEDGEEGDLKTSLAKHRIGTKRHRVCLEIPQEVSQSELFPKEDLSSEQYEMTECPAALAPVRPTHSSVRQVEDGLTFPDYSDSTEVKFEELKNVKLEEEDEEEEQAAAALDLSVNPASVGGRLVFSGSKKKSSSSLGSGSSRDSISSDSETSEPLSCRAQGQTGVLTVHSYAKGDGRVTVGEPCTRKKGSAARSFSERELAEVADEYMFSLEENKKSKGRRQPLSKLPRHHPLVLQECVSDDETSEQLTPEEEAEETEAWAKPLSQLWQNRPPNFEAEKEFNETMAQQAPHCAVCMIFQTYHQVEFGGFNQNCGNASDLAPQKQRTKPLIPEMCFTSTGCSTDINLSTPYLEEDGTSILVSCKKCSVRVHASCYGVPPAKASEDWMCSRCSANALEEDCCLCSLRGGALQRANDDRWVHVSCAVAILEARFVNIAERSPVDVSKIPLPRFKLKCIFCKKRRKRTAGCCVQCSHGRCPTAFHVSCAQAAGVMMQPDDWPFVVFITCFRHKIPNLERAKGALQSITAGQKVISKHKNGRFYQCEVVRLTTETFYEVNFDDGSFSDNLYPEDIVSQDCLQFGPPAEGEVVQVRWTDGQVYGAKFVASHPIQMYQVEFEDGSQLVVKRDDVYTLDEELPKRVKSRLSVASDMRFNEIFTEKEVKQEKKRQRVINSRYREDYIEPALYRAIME
Chain of UniProt Q8NEB9 (whole entry, looked up): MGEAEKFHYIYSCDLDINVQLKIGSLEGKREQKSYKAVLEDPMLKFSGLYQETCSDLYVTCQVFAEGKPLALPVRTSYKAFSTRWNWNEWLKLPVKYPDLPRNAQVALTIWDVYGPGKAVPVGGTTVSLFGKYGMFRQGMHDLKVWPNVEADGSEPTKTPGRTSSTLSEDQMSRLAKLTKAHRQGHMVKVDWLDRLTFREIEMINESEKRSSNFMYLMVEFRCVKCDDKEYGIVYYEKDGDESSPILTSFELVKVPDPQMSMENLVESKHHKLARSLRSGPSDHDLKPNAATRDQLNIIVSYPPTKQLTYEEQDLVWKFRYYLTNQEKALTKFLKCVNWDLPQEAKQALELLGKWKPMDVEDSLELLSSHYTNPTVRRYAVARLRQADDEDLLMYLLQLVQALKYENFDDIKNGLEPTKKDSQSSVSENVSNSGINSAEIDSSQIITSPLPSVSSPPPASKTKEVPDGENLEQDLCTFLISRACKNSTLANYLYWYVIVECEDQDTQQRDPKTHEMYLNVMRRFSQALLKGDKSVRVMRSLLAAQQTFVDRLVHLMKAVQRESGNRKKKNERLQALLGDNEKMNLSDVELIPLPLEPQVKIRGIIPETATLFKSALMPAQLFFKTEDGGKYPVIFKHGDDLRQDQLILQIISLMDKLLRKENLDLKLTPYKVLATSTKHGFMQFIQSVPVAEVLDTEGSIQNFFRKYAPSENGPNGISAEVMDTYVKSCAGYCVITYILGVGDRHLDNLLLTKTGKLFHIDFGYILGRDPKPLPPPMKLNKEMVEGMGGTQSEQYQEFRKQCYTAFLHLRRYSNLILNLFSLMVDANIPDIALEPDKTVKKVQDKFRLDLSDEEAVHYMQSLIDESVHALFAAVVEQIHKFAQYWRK
Chain of UniProt Q9Z1M0 (whole entry, unmodified, looked up): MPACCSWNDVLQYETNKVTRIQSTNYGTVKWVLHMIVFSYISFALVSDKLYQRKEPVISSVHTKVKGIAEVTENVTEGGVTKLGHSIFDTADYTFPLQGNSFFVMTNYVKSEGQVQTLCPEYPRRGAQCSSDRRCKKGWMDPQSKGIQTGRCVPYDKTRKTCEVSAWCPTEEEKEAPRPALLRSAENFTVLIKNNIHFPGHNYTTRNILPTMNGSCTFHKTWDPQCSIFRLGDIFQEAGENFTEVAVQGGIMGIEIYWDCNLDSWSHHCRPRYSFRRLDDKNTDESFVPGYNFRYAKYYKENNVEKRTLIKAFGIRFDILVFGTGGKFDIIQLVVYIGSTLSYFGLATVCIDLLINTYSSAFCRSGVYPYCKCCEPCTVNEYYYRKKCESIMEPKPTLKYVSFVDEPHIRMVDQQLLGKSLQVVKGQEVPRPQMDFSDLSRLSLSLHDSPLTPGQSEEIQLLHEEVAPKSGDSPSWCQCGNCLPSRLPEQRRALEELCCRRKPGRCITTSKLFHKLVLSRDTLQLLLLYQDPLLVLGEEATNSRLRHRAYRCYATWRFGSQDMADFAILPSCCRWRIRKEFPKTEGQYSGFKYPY
Chain of UniProt Q13153 (whole entry, looked up): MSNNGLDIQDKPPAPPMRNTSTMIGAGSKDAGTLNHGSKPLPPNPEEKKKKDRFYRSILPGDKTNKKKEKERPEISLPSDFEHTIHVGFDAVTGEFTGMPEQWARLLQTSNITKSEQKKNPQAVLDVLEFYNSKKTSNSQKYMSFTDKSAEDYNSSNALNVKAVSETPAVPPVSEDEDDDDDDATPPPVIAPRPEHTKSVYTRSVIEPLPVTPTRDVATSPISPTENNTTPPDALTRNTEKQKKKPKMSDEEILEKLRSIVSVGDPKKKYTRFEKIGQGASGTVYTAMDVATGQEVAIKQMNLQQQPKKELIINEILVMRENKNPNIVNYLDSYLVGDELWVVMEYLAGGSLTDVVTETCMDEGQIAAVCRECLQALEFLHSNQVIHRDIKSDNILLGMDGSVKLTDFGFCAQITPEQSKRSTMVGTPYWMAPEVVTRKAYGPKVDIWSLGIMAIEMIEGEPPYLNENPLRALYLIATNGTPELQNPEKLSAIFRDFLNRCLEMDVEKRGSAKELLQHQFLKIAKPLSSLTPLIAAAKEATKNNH
Chain of UniProt P45983 (whole entry, looked up): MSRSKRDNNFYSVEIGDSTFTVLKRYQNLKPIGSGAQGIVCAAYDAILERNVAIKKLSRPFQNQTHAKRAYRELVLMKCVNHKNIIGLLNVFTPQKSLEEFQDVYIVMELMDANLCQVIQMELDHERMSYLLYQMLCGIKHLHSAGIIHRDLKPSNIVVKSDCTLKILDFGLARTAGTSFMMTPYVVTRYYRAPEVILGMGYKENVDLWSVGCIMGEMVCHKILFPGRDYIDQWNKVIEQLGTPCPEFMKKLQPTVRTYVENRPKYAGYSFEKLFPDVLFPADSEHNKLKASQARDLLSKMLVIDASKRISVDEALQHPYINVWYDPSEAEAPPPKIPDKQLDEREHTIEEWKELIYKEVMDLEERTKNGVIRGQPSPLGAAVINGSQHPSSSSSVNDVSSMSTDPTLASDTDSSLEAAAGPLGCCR

With `COc1cccc(CNC(=O)CCC2CCCN(C/C=C/c3ccccc3OC)C2)c1` (stereo not drawn) the inhibition was 7.9% (Trypanosoma cruzi; reporter translation, Renilla luciferase mRNA translation; cell-free extract; 40 µM; reference: DMSO).
`Cc1cc(NC(=O)c2cccc(NC(=O)/C=C/CN(C)C)c2)ccc1Nc1nccc(-c2cccnc2)n1` has a remaining activity of 0.0367 (Mitogen-activated protein kinase 8 (MAPK8, Homo sapiens, UniProt P45983); enzyme activity, inhibitor; 44.44 µM, 6 h, unit not given, together with: GSH 10 mM pre-incubation; reference: vehicle).
The remaining activity of `C=CC(=O)N1CCC([C@@H]2CCNc3c(C(N)=O)c(-c4ccc(Oc5ccccc5)cc4)nn32)CC1` is reported as 79.1 ± 0.8% (STK25; kinase activity, inhibitor, HotSpot radiometric; 100 nM, together with: ATP 10 µM).
With `O=C(NC1CCC1)c1ccc2nc(-c3cccc(NS(=O)(=O)NCCN4CCCCC4)c3)cn2c1` the remaining activity was 94% (Calcium-dependent protein kinase 1 (CDPK1, Plasmodium falciparum, UniProt P62344); enzyme activity; 10 µM).
For `COc1cc(F)ccc1-c1ncnc(Nc2cccc(C[S@](C)(=N)=O)c2)n1`, the remaining activity was 118% (Serine/threonine-protein kinase haspin (HASPIN, Homo sapiens, UniProt Q8TF76); kinase activity; 10 µM, together with: 10 µM ATP).
`COc1cc(Nc2ncc3c(n2)-c2ccc(Cl)cc2C(c2c(F)cccc2OC)=NC3)ccc1C(=O)O` gave a remaining activity of 30% (FYN; kinase activity; 1 µM).
`Cn1ncc(C(=O)O)c1S(=O)(=O)NC1CCOc2ccccc21` (stereo not drawn) gave a remaining activity of 133% (malate dehydrogenase; enzyme activity, inhibitor; 200 µM, pH 7.0, 1% DMSO, aggregation counter-screen).
The remaining activity of `CN(C(=O)n1cnc(-c2ccc[n+]([O-])c2)c1)C1CCCCC1` is reported as 79% (Fatty-acid amide hydrolase 1 (Faah, Rattus norvegicus, UniProt P97612); rat, liver; 0.1 mg/kg, 6 days; reference: control).
The remaining activity of `C=CC(=O)N1CCC[C@@H](n2nc(-c3ccc(Oc4ccccc4)cc3)c3c(N)ncnc32)C1` is reported as 44.9% (TLK2; 1 µM).
`N#CC(=Cc1cc(F)ccc1F)C(=O)NC1CCCCC1` gave a labelling of 27.2% (UCHL1; covalent, intact protein LC-MS; 12.5 µM).
`COC1CC(OC(=O)c2ccc([N+](=O)[O-])cc2)C(OC(=O)c2ccc([N+](=O)[O-])cc2)C(C)O1` (stereo not drawn) gave a remaining activity of 99% (KDM4A; concentration not given).
With `CC#CC(=O)N1CCC[C@H]1c1nc(-c2ccc(C(=O)Nc3ccccn3)cc2)c2c(N)nccn12` the remaining activity was 98.2 ± 0.1% (Activated CDC42 kinase 1 (TNK2, Homo sapiens, UniProt Q07912); kinase activity, inhibitor, HotSpot radiometric; 100 nM, together with: ATP 10 µM).
For `O=C(O)C1Cc2nnc(CNS(=O)(=O)c3cccc(Cl)c3O)n2C1` (stereo not drawn), the remaining activity was 94% (malate dehydrogenase; enzyme activity, inhibitor; 200 µM, pH 7.0, 1% DMSO, aggregation counter-screen).
`C=CC[C@@H]1c2ccc(OC)c(OC)c2CN2CCc3cc4c(cc3[C@H]12)OCO4` gave a remaining activity of 45.4% (P2X purinoceptor 7 (P2rx7, Mus musculus, UniProt Q9Z1M0, A312V); ATP-evoked current, inhibitor, whole-cell patch clamp; 3 µM, A312V variant).
With `COc1ccc(F)cc1C(=O)NCc1ccc(-c2nn([C@@H](C)C(F)(F)F)c(N)c2C(N)=O)cc1` the remaining activity was 101% (Tyrosine-protein kinase Lyn, isoform B (LYN, Homo sapiens, UniProt P07948); kinase activity, inhibitor, HotSpot radiometric; 100 nM, together with: ATP 10 µM).
For `CC1C(C)[C@H](C(=O)NCCc2nnnn2-c2ccccc2)[C@@H]1C(=O)[O-].[Na+]` (stereo partly drawn), the remaining activity was 95% (malate dehydrogenase; enzyme activity, inhibitor; 200 µM, pH 7.0, 1% DMSO, aggregation counter-screen).
`c1cnc2ccc(Nc3nc(NC4CC4)c4nc[nH]c4n3)cc2c1` has a remaining activity of 69% (Phosphatidylinositol 3-kinase catalytic subunit type 3 (PIK3C3, Homo sapiens, UniProt Q8NEB9); kinase activity, inhibitor, SelectScreen kinase profiling; 1 µM; reference: control).
`Cc1nc2cc(Cl)c(NS(=O)(=O)c3cccc(Cl)c3O)cc2s1` has a remaining activity of 110% (malate dehydrogenase; enzyme activity, inhibitor; 40 µM, pH 7.0, 1% DMSO, aggregation counter-screen).
The labelling of `C=CCNC(=O)C(C#N)=Cc1ccccc1[N+](=O)[O-]` is reported as 5.79% (UCHL1; covalent, intact protein LC-MS; 12.5 µM).
The remaining activity of `O=[N+]([O-])c1ccccc1CCNS(=O)(=O)c1cccc(Cl)c1O` is reported as 71% (malate dehydrogenase; enzyme activity, inhibitor; 200 µM, pH 7.0, 1% DMSO, aggregation counter-screen).
`CNc1ncc2c(/C=C/C(=O)N3CCC(OC)CC3)nn(Cc3cccc(C(F)(F)F)c3)c2n1` gave a remaining activity of 102% (TLK2; kinase activity, inhibitor; 1 µM; reference: untreated control).
`NC/C(=C\F)COc1cccc(Cn2c(=S)[nH]c(=O)c3[nH]cnc32)c1` gave a remaining activity of 89% (Myeloperoxidase (MPO, Homo sapiens, UniProt P05164); LDL lipid peroxidation, inhibitor, refers to: cholesteryl ester hydroperoxide; 0.00023 µM; reference: control).
With `O=C(O)c1occc1S(=O)(=O)NC1CCSc2c(F)cccc21` (stereo not drawn) the remaining activity was 123% (malate dehydrogenase; enzyme activity, inhibitor; 200 µM, pH 7.0, 1% DMSO, aggregation counter-screen).
For `O=C(O)c1ccc(Nc2ncc3c(n2)-c2ccc(Cl)cc2C(c2c(F)cccc2F)=NC3)cc1`, the remaining activity was 130% (human SAPK2a(T106M); kinase activity; 1 µM).
For `O=S(=O)(NC1(Cc2ccc(F)cc2)CC1)c1cccc(Cl)c1O`, the remaining activity was 108% (malate dehydrogenase; enzyme activity, inhibitor; 200 µM, pH 7.0, 1% DMSO, aggregation counter-screen).
For `COc1cc(N2CCN(C)CC2)ccc1Nc1nc(N)n(C(=O)NCc2c(Cl)cccc2Cl)n1`, the remaining activity was 2.4% (Hepatocyte growth factor receptor (MET, Homo sapiens, UniProt P08581, M1250T); enzyme activity; 10 µM; reference: control).
`C=CC(=O)N1CCC[C@@H](n2nc(-c3ccc(Oc4ccccc4)cc3)c3c(N)ncnc32)C1` has a remaining activity of 103 ± 2.2% (STK25; kinase activity, inhibitor, HotSpot radiometric; 100 nM, together with: ATP 10 µM).
For `Cc1cc(Nc2cc(N3CCN(C)CC3)nc(Sc3ccc(NC(=O)C4CC4)cc3)n2)[nH]n1`, the remaining activity was 107% (Platelet-derived growth factor receptor alpha (PDGFRA, Homo sapiens, UniProt P16234); kinase activity, KinaseProfiler; 0.03 µM, species human; reference: control).
The remaining activity of `Cn1ncc(S(=O)(=O)NC(c2cccc(Cl)c2)c2cccc(Cl)c2)c1C(=O)O` is reported as 95% (malate dehydrogenase; enzyme activity, inhibitor; 200 µM, pH 7.0, 1% DMSO, aggregation counter-screen).
The remaining activity of `COc1cc(-c2cncc3c2CN(C)Cc2cc(N4CCNCC4)ccc2-3)cc(OC)c1OC` is reported as 97% (Serine/threonine-protein kinase PAK 1 (PAK1, Homo sapiens, UniProt Q13153); kinase activity; 1 µM, human enzyme, together with: ATP 10 µM; reference: DMSO control).
With `COC(=O)C(C(=O)C(=O)Nc1ccc([N+](=O)[O-])cc1[N+](=O)[O-])c1nc2ccc(Cl)cc2[nH]c1=O` (stereo not drawn) the remaining activity was 77% (KDM4A; concentration not given).
For `CCCOc1ccc(OC)c(F)c1C(=O)c1ccc(C(=O)N[C@@H]2CNC[C@H]2NC(=O)c2ccc3[nH]ncc3c2)cc1`, the remaining activity was 42% (Hepatocyte growth factor receptor (MET, Homo sapiens, UniProt P08581, Y1230H); enzyme activity; 10 µM).
`Cc1cccc(C)c1C(=O)OCC(=O)[C@H](CCCCN)NC(=O)[C@H](CCCNC(=N)N)NC(=O)OCc1ccccc1` has a remaining activity of 100% (Dipeptidyl peptidase 1 (Ctsc, Mus musculus, UniProt P97821); inhibitor; 10 µM, together with: AMC fluorogenic substrate; reference: untreated).
